Measured values from different studies.
Each numbered part is a random draw from the data of one study; scales do not carry over between parts. Substitutions count along the parent as printed.

Block 1 — target: CCNB1, cyclin fold, Cln2 fusion (human); technique: yeast growth competition, sequencing; medium: yeast; setting: strong parent motif; baseline: not given; direction: higher = stronger binding
Starting sequence: viral docking peptide; TSVRRALFTGGSD; partner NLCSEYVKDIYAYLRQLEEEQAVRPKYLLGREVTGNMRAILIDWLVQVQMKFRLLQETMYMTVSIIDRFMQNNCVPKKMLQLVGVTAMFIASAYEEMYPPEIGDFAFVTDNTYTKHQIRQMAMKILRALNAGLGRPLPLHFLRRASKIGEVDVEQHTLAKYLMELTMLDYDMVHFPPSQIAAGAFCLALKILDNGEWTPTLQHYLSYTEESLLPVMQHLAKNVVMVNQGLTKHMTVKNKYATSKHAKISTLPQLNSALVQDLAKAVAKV
Substitution | normalised enrichment score
L7T | 0.242
R4L | 0.119
T9I | 1.88
T9L | 1.91
G11E | 3.14
T9D | 1.83
G10Q | 2.01
G11M | 1.83
A6L | 0.785
S12H | 1.84
G10V | 1.59
L7S | -0.0917
G11K | 1.45
F8C | -0.00291
S12M | 2.16
A6N | 0.686
G11C | 2.37
G11N | 2.09
G10I | 1.57
V3F | 0.423
S12G | 2.07
F8H | 0.08
T1A | 2.68
G11D | 3.5
G11Q | 2.61

Block 2 — target: UBE2A UBC core domain (UniProt P49459); technique: yeast two-hybrid; medium: yeast; setting: mostly zero background; baseline: not given; direction: higher = stronger interaction
Chain of UniProt P49459 (whole entry, looked up): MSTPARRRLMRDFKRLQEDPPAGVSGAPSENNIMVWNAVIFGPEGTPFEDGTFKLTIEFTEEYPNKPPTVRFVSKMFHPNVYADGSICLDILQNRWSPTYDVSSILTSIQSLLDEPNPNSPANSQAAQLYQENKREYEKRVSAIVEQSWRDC
B1: RNF181 RING domain (UniProt Q9P0P0); chain VIRGSQAELKCPVCLLEFEEEETAIEMPCHHLFHSSCILPWLSKTNSCPLCRYELPTDDDTY
Molecule | lacZ reporter activity
B1 (RNF181 RING domain) | 0
KEQLEKHNDICAICYQDMKSAVITPCSHFFHAGCLKKWLYVQETCPLCHCHLKNSSQLP (RNF145 RING domain (UniProt Q96MT1)) | 0
QLRRLQEERTCKVCLDRAVSIVFVPCGHLVCAECAPGLQLCPICRAPVRSRVRTF (BIRC7 RING domain (UniProt Q96CA5)) | 0
MDDQGCPRCKTTKYRNPSLKLMVNVCGHTLCESCVDLLFVRGAGNCPECGTPLRKSNFRV (MNAT1 RING domain (UniProt P51948)) | 0

Block 3 — technique: protein-binding microarray; molecule type: double-stranded DNA, one strand shown; medium: in vitro; concentration: 940 nM top; setting: 60-bp whole probe; together with: salmon DNA 0.4 mg/ml; baseline: random background probes; direction: higher = stronger binding; all sequences stand within: GCCTAGCAC … GTCTTGATTCGCTTGACGCTGCTG
Target: Interferon regulatory factor 5, full length, phosphomimetic (IRF5, Homo sapiens, UniProt Q13568-2, residues 1-514, S451D/S453D/S456D/S462D)
Sequence | fitted relative affinity [z-score]
TTAGGCATCCTTCTCCTTTAGTGCTAG | -0.0534
TGAGATATCAGTCTCGATTAGTGCTAG | 2.49
GACGGACTGGACTTTAGGGACGTGCTA | -0.736
TTAGGACTGGACTATCGGATAGTGCTA | -0.273
GACGATATTAGTCTCGAGACGTGCTAG | 1.31
TTAGATATCAGACTGTATTAGTGCTAG | -0.227
CTGGATCTCAGACTGTGTCCGTGCTAG | -0.534
TTAGTTTTCGGGACTGGATTAGTGCTA | 2.01

Block 4 — technique: RNA Bind-n-Seq; molecule type: RNA; medium: in vitro; concentration: 1 µM; setting: whole 134-nt RNA, ends assumed; together with: 150 mM KCl; baseline: input library; direction: higher = stronger binding
Target: Ras GTPase-activating protein-binding protein 1, C-terminal RGG region (G3BP1, Homo sapiens, UniProt Q13283)
Chain of UniProt Q13283 (whole entry, looked up): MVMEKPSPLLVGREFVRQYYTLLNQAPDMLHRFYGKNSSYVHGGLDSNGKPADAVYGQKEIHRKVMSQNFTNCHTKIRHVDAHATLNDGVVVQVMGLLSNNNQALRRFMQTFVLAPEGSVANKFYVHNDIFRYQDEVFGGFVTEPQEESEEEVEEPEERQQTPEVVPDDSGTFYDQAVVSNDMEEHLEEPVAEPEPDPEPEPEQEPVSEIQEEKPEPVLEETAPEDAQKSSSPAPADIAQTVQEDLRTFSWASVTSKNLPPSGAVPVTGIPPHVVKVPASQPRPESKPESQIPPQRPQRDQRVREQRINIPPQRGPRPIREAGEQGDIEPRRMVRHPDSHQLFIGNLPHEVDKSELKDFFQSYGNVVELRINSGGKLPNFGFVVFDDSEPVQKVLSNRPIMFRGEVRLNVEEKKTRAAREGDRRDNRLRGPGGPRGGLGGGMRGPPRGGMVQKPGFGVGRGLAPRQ
All sequences stand within: GGGAGUUCUACAGUCCGACGAUC … UGGAAUUCUCGGGUGUCAAGG
Sequence | log2 enrichment
CUCAAGUCCUGUGCUACACAUCGUAUGUACCGAAUCGGAAAAAGGAAAGGAGGAAAGUAUUAUGUUACGCCGUUCGGAUCUGCACUUCCA | -1.68
UGCUAGGACUUGAUGGAUCACUAGUUUUUCUGGUAAGUAAAACUAAUUUUUUUUUUUUUUUUUUGAGACGGAAUCUCACUCUGUCACCCA | 0.458
GUGCUACACAUCGUAUGUACCGAAUCGGGGAAAAAAAGGGGUUUUUUUGGGGAAAAAAAGGGGAAAGUAUUAUGUUACGCCGUUCGGAUC | 0.53
AAGUCCUGUGCUACACAUCGUAUGUACCGAAUCGGGGUGGGGAAAAAGGGGUGGGGAAAGUAUUAUGUUACGCCGUUCGGAUCUGCACUU | 1.92
UAACUUUAGAGGAGGAUCUGAUGGACAUGGCAGUGGACGUGGAUUUGGGGAUGGCUAUAAUGGGUAUGGAGGAGGACCUGGAGGUGGCAA | -1.17
AGUCCUGUGCUACACAUCGUAUGUACCGAAUCGGAAAAAGGAAAAAAAGGUUUUUGGAAAGUAUUAUGUUACGCCGUUCGGAUCUGCACU | -2.3
UCCUGUGCUACACAUCGUAUGUACCGAAUCGGGAAAAAAGGGGAAAAAAGGAAAAAAGGAAAGUAUUAUGUUACGCCGUUCGGAUCUGCA | -1.33
UUCUCCUGCCCCGAAGCUCGCUGUGCGUGUGCGUGUGUGUGUCCCUCCGCCAACGCCGCCACCUCAGCCCGGCAAAUGAACUCCGUCCGA | 1.72

Block 5 — technique: RNA Bind-n-Seq; molecule type: RNA; medium: in vitro; concentration: 365 nM; baseline: no-protein control; direction: higher = stronger binding
Target: RNA binding protein fox-1 homolog 2, RRM domain, GST-SBP tag (RBFOX2, Homo sapiens, UniProt O43251-10, residues 100-194)
Setting: natural RNA segment, single round, ends assumed
All sequences stand within: GGGAGUUCUACAGUCCGACGAUC … UGGAAUUCUCGGGUGCCAA
Residues (chain): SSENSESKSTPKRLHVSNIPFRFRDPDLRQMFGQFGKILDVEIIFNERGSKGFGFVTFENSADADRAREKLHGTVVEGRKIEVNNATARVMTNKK
Sequence | RBNS enrichment (R)
GCUGGAAGAGGCUCAGCGUUUGUGCUUGACUGCUGACCACCAGUGGUGCCAGAAGGCCUCAUCCUACAUCCUGCUCUCCUGGAUUGUUAAGACUAUAAAGUACUACUGUA | 0.406
UAAAUUUCUAAUGUGUUCUAUGGGUUUCAAUUCUGAAAAAAGAAAAUGAAUAAAGAUUUUAAUAAAUAUUGAUAUCUGAUCUUUUCCUCUUCUUUCCCCCUUCAGGAUAU | 0.665
CUCCCUUCUGUCUAGAUUCACUUCAGUUUAUUGUUGGGAACUGUGCAGGUCCAAGACCUGGACUCCUGCUUCAGCCCAGGCCAGUACUCCUUGUCUGAGGUGAAAGCCUU | 0.253
AAACAGAUUCAGGCCAGCCCAGCCAGGCCAACAGCACCUCCCCGCUGGGAAGAGAAGAGGGCCCAGCCCAGAGCCACCUGGAUCUAUCCCUGCGGCCUCCACACCUGAAC | 0.432
GGUUCCUAUUCAGUAUUUCCUGGGGAUUGUUUGCUUUUUAAGUAAAACACUUCUGACCCAUAGCUCAGUAUGUCUGAAUUCCAGAGGUCACAUCAGCAUCUUUCUGCUUU | 4.77
AGUUUUCUGCUGGAUCUGGUGGGAAGGCAGCUCGGUAAAGUUUCCCUCCUGCUCCCCCCGCCCGACUUUGACUCUGAAUCAGCAUUUGGUCCUAUUCAGAGGACUCUUAC | 0.358
UGGCCAAAAGCCCCGUAUCAAACUGCCAUUUCUUCCGGUUUCUGUGGACCUUGUGGCCAGGUGCUCUUCCCGAGCCACAGGUGUUCUGUGAGCUUGCUUGUGUGUGUGUG | 0.943
UUUUGGGUCAGGGUUUCACUGUGUUGCCCAGGCUAGAGUGCAGUGGUGCCACAGCUCACUGUGACCUUGACCUUCUGGACUCAAGUGAUCCUCCUGCCUCAGCUUCCCAA | 0.385

Block 6 — read-out: peptide-MHC binding; molecule type: peptide; concentration: concentration not given
Target: HLA class I histocompatibility antigen, A alpha chain, allele A*25:01 (Homo sapiens, UniProt P04439)
Molecule | binding
FQILHDRFF | inactive
FGALFMWLL | inactive
RAIMTTWTV | inactive

Excerpt of the above (block 5):
Sequence | RBNS enrichment (R)
GCUGGAAGAGGCUCAGCGUUUGUGCUUGACUGCUGACCACCAGUGGUGCCAGAAGGCCUCAUCCUACAUCCUGCUCUCCUGGAUUGUUAAGACUAUAAAGUACUACUGUA | 0.406
UAAAUUUCUAAUGUGUUCUAUGGGUUUCAAUUCUGAAAAAAGAAAAUGAAUAAAGAUUUUAAUAAAUAUUGAUAUCUGAUCUUUUCCUCUUCUUUCCCCCUUCAGGAUAU | 0.665
CUCCCUUCUGUCUAGAUUCACUUCAGUUUAUUGUUGGGAACUGUGCAGGUCCAAGACCUGGACUCCUGCUUCAGCCCAGGCCAGUACUCCUUGUCUGAGGUGAAAGCCUU | 0.253
AAACAGAUUCAGGCCAGCCCAGCCAGGCCAACAGCACCUCCCCGCUGGGAAGAGAAGAGGGCCCAGCCCAGAGCCACCUGGAUCUAUCCCUGCGGCCUCCACACCUGAAC | 0.432
